Published values of several laboratories.
Parts stem from different laboratories: compare values within a part only. Positions count from the first letter of the parent shown.

Study 1
Target: Centromere-binding protein 1, full length, His-tagged (CBF1, Saccharomyces cerevisiae, UniProt P17106, residues 1-351)
UniProt P17106, sequence (whole entry, looked up): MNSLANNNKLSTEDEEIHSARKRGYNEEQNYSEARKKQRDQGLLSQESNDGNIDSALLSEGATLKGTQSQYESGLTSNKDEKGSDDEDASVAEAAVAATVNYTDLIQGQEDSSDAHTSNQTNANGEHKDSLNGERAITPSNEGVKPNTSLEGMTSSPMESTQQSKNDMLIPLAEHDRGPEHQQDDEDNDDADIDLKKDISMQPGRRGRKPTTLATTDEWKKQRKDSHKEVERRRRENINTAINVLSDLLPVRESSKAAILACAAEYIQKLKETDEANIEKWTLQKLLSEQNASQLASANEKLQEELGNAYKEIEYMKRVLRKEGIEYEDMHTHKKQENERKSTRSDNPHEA
Technique: competition protein-binding microarray
Molecule type: double-stranded DNA, one strand shown
Medium: in vitro
Tested at: 2 µM
Setting: whole 60-bp probe, lowest competitor level
Together with: Pho4 competitor, 0.05 µM
Reading: higher = stronger binding
All sequences stand within: … GTCTTGATTCGCTTGACGCTGCTG
| Sequence | fluorescence intensity [a.u.] |
| --- | --- |
| GTCTTGTCTCATTGACAAGTGGGTGTCCCCACTTCA | 77.6 |
| TCGGATTACTTTACCCACGTGCGATATCATCAATTA | 1190 |
| TACTCCACTGCTCCACACGTTGTTGCTGCTGTTATG | 88.1 |
| TGCGCAACAACTTGTTATGTGGGTGTATGTCTAGAA | 70.6 |
| CTGTTTTTCACCTTCCACGTGGATTTTTTCGCGTTT | 1120 |
| CTAAAATCAGCATCGCACATGGACGGTTAGCTCGCG | 69.5 |
| CTAACGAAGGTTTGTCACCGCACTTACAAGCCAAGT | 65.7 |
| TCAAAGTAGCATTAGCTCATAAGGCTTTCACCCTTG | 60.1 |
| TTCGGGTGCCAATTTAGCGTGCTTTGATCTAACTAT | 67.7 |
| CATACCCAACCTTGCCGTGTGGGTGAAGATATTTGT | 56.4 |

Study 2
Target: Ras GTPase-activating protein-binding protein 1, full length (G3BP1, Homo sapiens, UniProt Q13283)
UniProt Q13283, sequence (whole entry, looked up): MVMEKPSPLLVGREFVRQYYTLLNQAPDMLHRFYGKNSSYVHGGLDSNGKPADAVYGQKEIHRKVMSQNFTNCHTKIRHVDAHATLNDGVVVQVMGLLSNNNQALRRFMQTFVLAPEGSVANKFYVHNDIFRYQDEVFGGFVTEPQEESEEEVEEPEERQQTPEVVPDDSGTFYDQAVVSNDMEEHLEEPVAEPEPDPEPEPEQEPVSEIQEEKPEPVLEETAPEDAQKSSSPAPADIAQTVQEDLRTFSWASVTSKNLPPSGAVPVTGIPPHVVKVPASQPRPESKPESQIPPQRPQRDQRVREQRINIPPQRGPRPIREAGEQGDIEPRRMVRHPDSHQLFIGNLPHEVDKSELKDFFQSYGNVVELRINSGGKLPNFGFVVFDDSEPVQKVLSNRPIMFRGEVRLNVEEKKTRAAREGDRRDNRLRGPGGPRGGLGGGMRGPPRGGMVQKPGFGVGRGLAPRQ
Technique: RNA Bind-n-Seq
Molecule type: RNA
Medium: in vitro
Tested at: 200 nM
Setting: whole 134-nt RNA, ends assumed
Together with: 150 mM LiCl
Reference: input library
Reading: higher = stronger binding
All molecules: 7-deaza-guanosine replaces G
All sequences stand within: GGGAGUUCUACAGUCCGACGAUC … UGGAAUUCUCGGGUGUCAAGG
| Sequence | log2 enrichment |
| --- | --- |
| CACAGACAACACGCACCCACAGAGACACAGAGGGAAGGGGUUGGGAUGGGGACAGGGUGCACAGCAGGGCGGGGUAGGACCCCAGCCCCU | 0.753 |
| UGGCCCUGGUGGCAUGCGGGGAGGAAGAGGUGGCCUCAUGGAUCGUGGUGGUCCCGAUGGAAUGUUCAGAGGUGGCCGUGGUGGAGACAG | 0.0368 |
| UGGGAGGUGGAUUAUGUUUAUUUUUUUAGCUCAUUUCCAGGGGUGGGAAUUUUUUUUUAAUAUGUGUCAUGAAUAAAGUUGUUUUUGAAA | -1.01 |
| AGUCCUGUGCUACACAUCGUAUGUACCGAAUCGGAAAAAAAGGUUUUUUUGGAAAGGAAAGUAUUAUGUUACGCCGUUCGGAUCUGCACU | -3.18 |
| CACAGACAACACGCACCCACACAGACACAGAGGGAAGGGGUUCGGAUGGGGACAGGGUGCACAGCAGGGCGGGGUAGGACCCCAGCCCCU | -0.857 |
| UCAUUUUUUUCCCUGCCGGAAUUUUAGCAUUGAUAUGAACCAUGGACAAGUAUAUUCUGCUGCCACAAAGACUGUAAAGUGCUUCAUUUC | 1.41 |
| UCAAGUCCUGUGCUACACAUCGUAUGUACCGAAUCGGAAAGGGAAAGGAAAGGGGAAAGUAUUAUGUUACGCCGUUCGGAUCUGCACUUC | -0.524 |
| CUGUGCUACACAUCGUAUGUACCGAAUCGGUUUUUUUGGGGUUUUUUUGGUUUUUUUGGGGAAAGUAUUAUGUUACGCCGUUCGGAUCUG | 1.08 |

Study 3
Target: CCND1, cyclin fold, Cln2 fusion (human)
Technique: yeast growth competition, sequencing
Medium: yeast
Setting: weak parent motif
Reference: not given
Reading: higher = stronger binding
Starting sequence: GMNC docking peptide (human); KNAKRNLSSEFAN; partner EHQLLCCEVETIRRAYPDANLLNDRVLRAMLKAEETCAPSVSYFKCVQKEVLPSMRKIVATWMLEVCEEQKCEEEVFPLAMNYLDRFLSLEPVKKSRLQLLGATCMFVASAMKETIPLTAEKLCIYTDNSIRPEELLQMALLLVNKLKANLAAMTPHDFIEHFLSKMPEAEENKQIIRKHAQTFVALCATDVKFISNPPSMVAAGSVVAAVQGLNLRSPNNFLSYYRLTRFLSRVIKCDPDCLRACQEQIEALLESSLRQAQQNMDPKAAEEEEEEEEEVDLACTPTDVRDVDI
| Variant | normalised enrichment score |
| --- | --- |
| R5C | 0.125 |
| N2K | 0.916 |
| R5A | 0.31 |
| F11H | -0.15 |
| K4P | 0.274 |
| N6T | 0.212 |
| L7T | 0.471 |
| L7D | 0.428 |

Other studies, line by line
| Substance | target | assay | test system | setting | how to read | quantity | result |
| --- | --- | --- | --- | --- | --- | --- | --- |
| PhoQ, residues 284 288 289 292 302 303 GTAMQF | PhoP, residues 12 14 15 18 19 YHFSH (Escherichia coli, UniProt P23836) | Sort-seq, measured: YFP reporter | E. coli | PhoQ-PhoP variant library, together with: 10 µM Mg2+ | reference: high Mg2+ state, higher = stronger signaling | fold induction | 29.8 |

Excerpt of the above (study 2):
| Sequence | log2 enrichment |
| --- | --- |
| CACAGACAACACGCACCCACACAGACACAGAGGGAAGGGGUUCGGAUGGGGACAGGGUGCACAGCAGGGCGGGGUAGGACCCCAGCCCCU | -0.857 |
| UCAUUUUUUUCCCUGCCGGAAUUUUAGCAUUGAUAUGAACCAUGGACAAGUAUAUUCUGCUGCCACAAAGACUGUAAAGUGCUUCAUUUC | 1.41 |
| UCAAGUCCUGUGCUACACAUCGUAUGUACCGAAUCGGAAAGGGAAAGGAAAGGGGAAAGUAUUAUGUUACGCCGUUCGGAUCUGCACUUC | -0.524 |
